Measurements gathered from unrelated publications.
Lines come from different studies, so protocols differ.
Organism: Staphylococcus aureus

With `CC[C@H](C)[C@H](NC(=O)[C@@H](CCCNC(=N)N)NC(=O)[C@H](CCCNC(=N)N)NC(=O)[C@H](Cc1ccc(O)cc1)NC(=O)[C@H](Cc1c[nH]c2ccccc12)NC(=O)[C@H](CCCNC(=N)N)NC(=O)[C@@H]1CCCN1C(=O)[C@H](CCCNC(=N)N)NC(=O)[C@@H]1CCCN1C(=O)[C@H](CC(C)C)NC(=O)[C@H](Cc1ccc(O)cc1)NC(=O)[C@@H]1CCCN1C(=O)[C@@H]1CCCN1C(=O)[C@H](CCCCN)NC(=O)[C@H](CC(=O)O)NC(=O)[C@@H](N)C(C)C)C(=O)N[C@@H](Cc1ccc(O)cc1)C(=O)N[C@@H](CC(N)=O)C(=O)N[C@H](CCCNC(=N)N)C(N)=O` the MIC was 64 mg/L (broth microdilution; DSM 6247; 18 h, 37 °C, 25% MHB2).
For `CC[C@H](C)[C@H](NC(=O)[C@@H](CCC(=O)O)NC(=O)[C@H](CC(C)C)NC(=O)c1cccc(-c2ccccn2)n1)C(=O)N[C@H]1CCCCNC(=O)[C@H](CC(N)=O)NC(=O)[C@@H](CC(=O)O)NC(=O)[C@H](Cc2c[nH]cn2)NC(=O)[C@@H](Cc2ccccc2)NC(=O)[C@H]([C@@H](C)CC)NC(=O)[C@@H](CCCN)NC1=O`, the MIC was greater than 64 mg/L (ATCC 29213 methicillin-susceptible; 18 h, 37 °C, 0.3 mM ZnSO4 LB).
`C#CCNC(=O)[C@H]1NC(=O)[C@H]2NC(=O)[C@H](NC(=O)[C@@H]3NC(=O)[C@H](CC(N)=O)NC(=O)[C@H](NC(=O)[C@@H](CC(C)C)NC)[C@H](O)c4ccc(c(Cl)c4)Oc4cc3cc(c4O[C@@H]3O[C@H](CO)[C@@H](O)[C@H](O)[C@H]3O[C@H]3C[C@](C)(N)[C@H](O)[C@H](C)O3)Oc3ccc(cc3Cl)[C@H]2O)c2ccc(O)c(c2)-c2c(O)cc(O)cc21` gave an MIC of 0.336 µM (MSSA ATCC 29213).
With `CC[C@H](C)[C@H](NC(=O)[C@H](CCCNC(=N)N)NC(=O)[C@H](Cc1c[nH]c2ccccc12)NC(=O)[C@H](Cc1c[nH]c2ccccc12)NC(=O)[C@H](CCCNC(=N)N)NC(=O)[C@@H](N)CCCNC(=N)N)C(=O)N[C@@H](Cc1c[nH]c2ccccc12)C(N)=O` the MIC was 8 mg/L (6538).
With `C#CCOc1ccc(CN[C@@]2(C)C[C@H](O[C@H]3[C@H](Oc4c5cc6cc4Oc4ccc(cc4Cl)[C@@H](O)[C@@H](NC(=O)[C@@H](CC(C)C)NC)C(=O)N[C@@H](CC(N)=O)C(=O)N[C@H]6C(=O)N[C@H]4C(=O)N[C@H](C(=O)N[C@H](C(=O)N[C@@H](CCCNC(=N)N)C(N)=O)c6cc(O)cc(O)c6-c6cc4ccc6O)[C@H](O)c4ccc(c(Cl)c4)O5)O[C@H](CO)[C@@H](O)[C@@H]3O)O[C@@H](C)[C@H]2O)cc1OC` the MIC was 1 µM (LIM-2 VISA).
The MIC of `CC(C)CCCCCCCCC/C=C/C(=O)N[C@@H](CC(N)=O)C(=O)N[C@H]1CNC(=O)[C@@H]2CCCN2C(=O)[C@H](C(C)C)NC(=O)[C@@H](CN)NC(=O)CNC(=O)[C@H](CC(=O)O)NC(=O)CNC(=O)[C@H](CC(=O)O)NC(=O)[C@H](CC(=O)O)NC(=O)[C@H]2CCCCN2C1=O` is reported as 8 mg/L (broth microdilution; VISA LIM strain 2, Mueller-Hinton broth, Mg2+ 10 mg/L; 16 h, with: Ca2+ 1.0 mM).
`CC(=O)N[C@@H](CC(C)C)C(=O)N[C@H]1CSSC[C@@H](C(=O)N2CCC[C@H]2C(N)=O)NC(=O)[C@H]([C@@H](C)O)NC(=O)[C@H](C(C)C)NC(=O)[C@H]([C@@H](C)O)NC(=O)CNC(=O)[C@H](CC(C)C)NC(=O)[C@H](Cc2ccccc2)NC(=O)[C@H](Cc2ccc(O)cc2)NC(=O)[C@H](CC(C)C)NC(=O)[C@H](CCCCN)NC(=O)[C@H](Cc2ccccc2)NC(=O)[C@H](CCCNC(=N)N)NC(=O)[C@H](CCC(N)=O)NC(=O)[C@H](CC(C)C)NC(=O)[C@H](CCCCN)NC(=O)[C@@H]2CCCN2C(=O)[C@H](CCCCN)NC(=O)[C@H](C(C)C)NC(=O)[C@H](CC(N)=O)NC(=O)[C@H](Cc2ccc(O)cc2)NC(=O)[C@H]([C@@H](C)O)NC1=O` has an MIC of 5 to 10 µM (broth dilution; laboratory strain; 24 h).
With `CCCCCCCCCCCCCC(=O)N[C@H]1C(=O)N[C@@H](CN)C(=O)N[C@@H](CO)C(=O)N[C@@H](Cc2ccc(O)cc2)C(=O)O[C@H]1C` the MIC was 1 mg/L (SH1000; with: N-acetylsphingosine, molar ratio 2).
For `Cc1ccc2[nH]c3c(c2c1)CCCC3NCCc1ccc(O)cc1` (stereo not shown), the MIC was 16 mg/L (broth microdilution; ATCC 29213).
`CN[C@@H]1[C@H](O)[C@H](NC)[C@H]2O[C@]3(O)[C@H](O[C@@H]2[C@H]1O)O[C@H](C)C[C@H]3NC(=O)CNC(C)(C)C` has an MIC of 200 mg/L (microbial growth, broth dilution; 8325).
With `CCn1c(-c2ccc(OC)cc2)c(-c2ccc(OC)cc2)n(Cc2c(C)cc(C)cc2C)c1=[Se]` the MIC was greater than 40 µM (microbial growth, broth dilution; ATCC700699 VISA; 24 h, drug-resistant strain).
The MIC of `C#CCOc1ccc(CN[C@@]2(C)C[C@H](O[C@H]3[C@H](Oc4c5cc6cc4Oc4ccc(cc4Cl)[C@@H](O)[C@@H](NC(=O)[C@@H](CC(C)C)NC)C(=O)N[C@@H](CC(N)=O)C(=O)N[C@H]6C(=O)N[C@H]4C(=O)N[C@H](C(=O)N[C@H](C(=O)O)c6cc(O)cc(O)c6-c6cc4ccc6O)[C@H](O)c4ccc(c(Cl)c4)O5)O[C@H](CO)[C@@H](O)[C@@H]3O)O[C@@H](C)[C@H]2O)cc1OC` is reported as 1 µM (MRSA USA300).
The MIC of `CC[C@H](C)[C@@H]1NC(=O)[C@H](CO)NC(=O)[C@H](CCCCN)NC(=O)[C@@H]2CSSC[C@@H](C(=O)N[C@@H](Cc3ccc(O)cc3)C(N)=O)NC(=O)[C@H](CCCCN)NC(=O)[C@@H]3CSSC[C@H](NC(=O)[C@H](CCCNC(=N)N)NC(=O)[C@H](CC(C)C)NC(=O)[C@H](CC(=O)O)NC(=O)[C@H](CC(=O)O)NC(=O)[C@H](CCC(=O)O)NC(=O)[C@H](CC(N)=O)NC(=O)[C@H](Cc4c[nH]c5ccccc45)NC(=O)C(C)(CC)NC(=O)CNC(=O)[C@H](CC(N)=O)NC(=O)[C@@H](NC(=O)CNC(=O)[C@H](Cc4ccccc4)NC(=O)CN)CSSC[C@H](NC(=O)[C@H](Cc4ccc(O)cc4)NC(=O)CNC(=O)CNC(=O)[C@H](CCCCN)NC(=O)[C@H](Cc4ccc(O)cc4)NC(=O)[C@H]4CCCN4C(=O)[C@@H]4CCCN4C1=O)C(=O)N[C@@H](C)C(=O)N[C@@H](CCCCN)C(=O)N1CCC[C@@H]1C(=O)NCC(=O)N[C@@H](Cc1ccccc1)C(=O)N[C@@H](C(C)C)C(=O)N3)C(=O)N[C@@H](Cc1c[nH]cn1)C(=O)N[C@@H](CC(N)=O)C(=O)N[C@@H](Cc1c[nH]cn1)C(=O)N2` (stereo partly shown) is reported as 2 µM (473, methicillin-resistant mecA, cation-adjusted Mueller Hinton broth; 18 h, 37 °C).
The MIC of `C=C(NC(=O)c1csc(-c2nc3c(cc2O)-c2nc(cs2)C(=O)NC(C(C)O)C(=O)NC(=C(C)OC)c2nc(cs2)C(=O)NC2c4nc(cs4)C(=O)NC(COC(=O)c4c5c6c(cccc6n4O)COC(=O)C(OC4CC(C)(O)C(N(C)C)C(C)O4)C2OC5)c2nc-3cs2)n1)C(N)=O` (stereo not shown) is reported as 0.0312 mg/L (MRSA strain 1, vancomycin-induced; 20 generations).
`COc1ccc2ccc(O)c(/C=N/[C@H]3CCCC[C@H]3/N=C/c3ccc(F)cc3O)c2c1` gave an MIC of greater than 40 µM (bacterial growth, broth microdilution; vancomycin-intermediate).
With `CC(C)C[C@@H](NC(=O)[C@@H](CCCNC(=N)N)NC(=O)[C@H](N)CCCNC(=N)N)C(=O)N[C@H](CC(C)C)C(=O)N[C@H](CCCNC(=N)N)C(=O)N[C@H](CCCCN)C(=O)N[C@H](CC(C)C)C(=O)N[C@H](CCCCN)C(=O)NCC(=O)N[C@H](CCCCN)C(=O)N[C@H](CCCCN)C(=O)N[C@H](CC(C)C)C(=O)N[C@H](Cc1ccc(O)cc1)C(=O)N[C@H](CC(C)C)C(=O)N[C@H](Cc1ccc(O)cc1)C(=O)N[C@H](Cc1ccccc1)C(=O)N[C@H](CCCCN)C(=O)N[C@H](CC(C)C)C(=O)N[C@H](CCC(N)=O)C(=O)N[C@H](CC(C)C)C(=O)N[C@H](CC(C)C)C(=O)N[C@H](CCCCN)C(=O)N[C@H](CCCCN)C(N)=O` the MIC was 16 µM (KCTC 1621, Mueller-Hinton broth; with: 1 mM MgCl2).
The MIC of `CC[C@H]1OC(=O)[C@H](C)[C@@H](OC(=O)Cc2ccccc2)[C@H](C)[C@@H](O[C@@H]2O[C@H](C)C[C@H](N(C)C)[C@H]2O)[C@](C)(OC)C[C@@H](C)C(=O)[C@H](C)[C@@H](O)[C@]1(C)O` is reported as greater than 256 mg/L (ATCC 43300 MRSA).
`CC[C@H](C)[C@H](NC(=O)[C@H](CCCCN)NC(=O)[C@H](CCC(N)=O)NC(=O)[C@H](C)NC(=O)[C@H](Cc1ccc(O)cc1)NC(=O)[C@H](CCC(=O)O)NC(=O)[C@H](CCCCN)NC(=O)[C@H](C)NC(=O)[C@H](CC(C)C)NC(=O)[C@H](CCCNC(=N)N)NC(=O)[C@H](CC(C)C)NC(=O)CNC(=O)[C@H](CCCCN)NC(=O)[C@H](C)NC(=O)[C@H](CCCNC(=N)N)NC(=O)[C@H](CC(C)C)NC(=O)[C@H](CCCCN)NC(=O)[C@H](CCC(N)=O)NC(=O)[C@H](C)NC(=O)[C@H](CC(C)C)NC(=O)[C@H](CCCCN)NC(=O)[C@H](CO)NC(=O)[C@H](CCCCN)NC(=O)[C@@H](N)Cc1c[nH]c2ccccc12)C(=O)N[C@@H](CC(C)C)C(=O)N[C@@H](CC(N)=O)C(=O)O` gave an MIC of 141 mg/L (broth microdilution; ATCC 29213, Mueller-Hinton broth; 16 to 20 h, 37 °C).
`CC[C@H](C)[C@H](NC(=O)[C@@H](CCCNC(=N)N)NC(=O)[C@H](CCCNC(=N)N)NC(=O)[C@H](Cc1c[nH]c2ccccc12)NC(=O)[C@H](Cc1c[nH]c2ccccc12)NC(=O)[C@H](CCCNC(=N)N)NC(=O)[C@@H]1CCCN1C(=O)[C@H](CCCNC(=N)N)NC(=O)[C@@H]1CCCN1C(=O)[C@H](CC(C)C)NC(=O)[C@H](Cc1ccc(O)cc1)NC(=O)[C@@H]1CCCN1C(=O)[C@@H]1CCCN1C(=O)[C@H](CCCCN)NC(=O)[C@H](CC(=O)O)NC(=O)[C@@H](N)C(C)C)C(=O)N[C@@H](Cc1ccc(O)cc1)C(=O)N[C@@H](CC(N)=O)C(=O)N[C@H](CCCNC(=N)N)C(N)=O` has an MIC of 32 mg/L (broth microdilution; DSM 6247; 18 h, 37 °C, 25% MHB2).

For quick reference, copied from above:
With `C#CCOc1ccc(CN[C@@]2(C)C[C@H](O[C@H]3[C@H](Oc4c5cc6cc4Oc4ccc(cc4Cl)[C@@H](O)[C@@H](NC(=O)[C@@H](CC(C)C)NC)C(=O)N[C@@H](CC(N)=O)C(=O)N[C@H]6C(=O)N[C@H]4C(=O)N[C@H](C(=O)N[C@H](C(=O)N[C@@H](CCCNC(=N)N)C(N)=O)c6cc(O)cc(O)c6-c6cc4ccc6O)[C@H](O)c4ccc(c(Cl)c4)O5)O[C@H](CO)[C@@H](O)[C@@H]3O)O[C@@H](C)[C@H]2O)cc1OC` the MIC was 1 µM (LIM-2 VISA).
The MIC of `CC(C)CCCCCCCCC/C=C/C(=O)N[C@@H](CC(N)=O)C(=O)N[C@H]1CNC(=O)[C@@H]2CCCN2C(=O)[C@H](C(C)C)NC(=O)[C@@H](CN)NC(=O)CNC(=O)[C@H](CC(=O)O)NC(=O)CNC(=O)[C@H](CC(=O)O)NC(=O)[C@H](CC(=O)O)NC(=O)[C@H]2CCCCN2C1=O` is reported as 8 mg/L (broth microdilution; VISA LIM strain 2, Mueller-Hinton broth, Mg2+ 10 mg/L; 16 h, with: Ca2+ 1.0 mM).
